Results of several laboratories.
Numbered parts are unrelated; each lists some results of a single study.
Chain of UniProt Q04759 (whole entry, looked up): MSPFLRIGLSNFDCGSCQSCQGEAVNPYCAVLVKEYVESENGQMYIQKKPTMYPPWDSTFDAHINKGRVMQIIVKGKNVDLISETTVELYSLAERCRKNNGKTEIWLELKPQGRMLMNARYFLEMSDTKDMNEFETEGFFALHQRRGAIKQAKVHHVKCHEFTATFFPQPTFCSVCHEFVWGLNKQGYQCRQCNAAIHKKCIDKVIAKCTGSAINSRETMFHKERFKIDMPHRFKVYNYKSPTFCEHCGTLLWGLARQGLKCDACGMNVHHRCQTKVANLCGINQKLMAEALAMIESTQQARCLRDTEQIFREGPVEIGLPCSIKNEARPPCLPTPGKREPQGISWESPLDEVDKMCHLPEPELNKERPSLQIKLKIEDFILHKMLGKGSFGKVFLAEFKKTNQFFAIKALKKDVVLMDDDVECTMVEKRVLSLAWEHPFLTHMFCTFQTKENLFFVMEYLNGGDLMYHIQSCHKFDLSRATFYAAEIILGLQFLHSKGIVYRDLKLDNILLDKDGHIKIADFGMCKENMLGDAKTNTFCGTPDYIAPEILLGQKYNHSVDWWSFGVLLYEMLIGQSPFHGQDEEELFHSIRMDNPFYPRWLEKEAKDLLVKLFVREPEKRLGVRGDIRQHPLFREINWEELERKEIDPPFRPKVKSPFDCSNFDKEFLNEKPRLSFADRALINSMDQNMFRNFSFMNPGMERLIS
Chain of UniProt P11309 (whole entry, looked up): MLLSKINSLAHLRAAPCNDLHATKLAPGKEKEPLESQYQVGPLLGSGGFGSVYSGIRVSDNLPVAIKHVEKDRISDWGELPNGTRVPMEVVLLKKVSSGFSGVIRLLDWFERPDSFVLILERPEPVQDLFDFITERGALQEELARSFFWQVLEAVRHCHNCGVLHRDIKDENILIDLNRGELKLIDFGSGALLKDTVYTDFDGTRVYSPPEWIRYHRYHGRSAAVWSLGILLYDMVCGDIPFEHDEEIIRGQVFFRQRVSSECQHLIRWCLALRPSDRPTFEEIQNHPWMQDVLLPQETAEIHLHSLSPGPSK
Chain of UniProt P11802 (whole entry, looked up): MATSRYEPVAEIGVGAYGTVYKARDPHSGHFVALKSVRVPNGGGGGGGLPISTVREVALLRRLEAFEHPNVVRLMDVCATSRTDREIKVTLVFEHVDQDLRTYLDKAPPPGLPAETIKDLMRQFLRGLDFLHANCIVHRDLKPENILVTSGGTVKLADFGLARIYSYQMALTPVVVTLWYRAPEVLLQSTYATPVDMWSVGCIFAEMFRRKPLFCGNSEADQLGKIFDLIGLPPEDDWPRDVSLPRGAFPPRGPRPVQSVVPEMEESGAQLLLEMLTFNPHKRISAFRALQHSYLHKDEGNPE
Chain of UniProt P03372 (whole entry, looked up): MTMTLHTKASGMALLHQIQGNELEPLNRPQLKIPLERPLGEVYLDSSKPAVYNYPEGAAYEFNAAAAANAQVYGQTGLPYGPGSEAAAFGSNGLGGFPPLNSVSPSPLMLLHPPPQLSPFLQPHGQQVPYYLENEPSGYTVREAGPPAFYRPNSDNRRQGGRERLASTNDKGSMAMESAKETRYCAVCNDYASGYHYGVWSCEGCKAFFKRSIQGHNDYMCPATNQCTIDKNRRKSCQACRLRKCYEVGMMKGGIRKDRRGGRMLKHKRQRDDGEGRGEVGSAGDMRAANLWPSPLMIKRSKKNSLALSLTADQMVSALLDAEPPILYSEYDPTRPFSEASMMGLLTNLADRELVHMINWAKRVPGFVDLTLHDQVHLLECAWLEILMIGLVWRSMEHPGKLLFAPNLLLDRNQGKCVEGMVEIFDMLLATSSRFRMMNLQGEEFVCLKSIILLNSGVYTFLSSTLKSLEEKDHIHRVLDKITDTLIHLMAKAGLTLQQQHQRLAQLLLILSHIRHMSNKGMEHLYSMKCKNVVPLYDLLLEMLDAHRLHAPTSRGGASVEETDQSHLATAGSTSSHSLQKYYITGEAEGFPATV
Chain of UniProt P08908 (whole entry, looked up): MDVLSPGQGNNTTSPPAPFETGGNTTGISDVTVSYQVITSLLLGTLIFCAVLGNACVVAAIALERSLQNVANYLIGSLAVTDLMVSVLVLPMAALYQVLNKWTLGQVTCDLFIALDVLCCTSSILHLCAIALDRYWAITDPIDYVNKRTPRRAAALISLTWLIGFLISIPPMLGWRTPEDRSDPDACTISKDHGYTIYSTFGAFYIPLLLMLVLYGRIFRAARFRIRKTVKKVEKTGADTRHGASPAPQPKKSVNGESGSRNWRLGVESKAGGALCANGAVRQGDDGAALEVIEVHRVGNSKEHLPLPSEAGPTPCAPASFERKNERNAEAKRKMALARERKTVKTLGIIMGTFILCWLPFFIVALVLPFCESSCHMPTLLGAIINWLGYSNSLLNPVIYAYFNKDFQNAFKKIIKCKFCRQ
Chain of UniProt Q9UBE8 (whole entry, looked up): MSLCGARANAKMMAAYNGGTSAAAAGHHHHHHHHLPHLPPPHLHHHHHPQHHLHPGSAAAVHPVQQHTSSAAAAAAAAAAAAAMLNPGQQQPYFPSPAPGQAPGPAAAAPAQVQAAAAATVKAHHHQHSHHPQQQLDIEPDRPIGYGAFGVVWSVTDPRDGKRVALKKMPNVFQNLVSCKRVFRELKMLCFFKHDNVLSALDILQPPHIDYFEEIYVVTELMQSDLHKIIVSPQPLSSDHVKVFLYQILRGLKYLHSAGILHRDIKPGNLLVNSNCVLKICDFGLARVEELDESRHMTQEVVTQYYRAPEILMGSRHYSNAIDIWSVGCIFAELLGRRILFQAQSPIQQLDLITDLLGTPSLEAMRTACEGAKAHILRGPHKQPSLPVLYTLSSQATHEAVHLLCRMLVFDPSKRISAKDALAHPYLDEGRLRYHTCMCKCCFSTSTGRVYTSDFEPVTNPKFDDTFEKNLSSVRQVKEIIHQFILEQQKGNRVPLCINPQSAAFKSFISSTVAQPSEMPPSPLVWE
Chain of UniProt P35372 (whole entry, looked up): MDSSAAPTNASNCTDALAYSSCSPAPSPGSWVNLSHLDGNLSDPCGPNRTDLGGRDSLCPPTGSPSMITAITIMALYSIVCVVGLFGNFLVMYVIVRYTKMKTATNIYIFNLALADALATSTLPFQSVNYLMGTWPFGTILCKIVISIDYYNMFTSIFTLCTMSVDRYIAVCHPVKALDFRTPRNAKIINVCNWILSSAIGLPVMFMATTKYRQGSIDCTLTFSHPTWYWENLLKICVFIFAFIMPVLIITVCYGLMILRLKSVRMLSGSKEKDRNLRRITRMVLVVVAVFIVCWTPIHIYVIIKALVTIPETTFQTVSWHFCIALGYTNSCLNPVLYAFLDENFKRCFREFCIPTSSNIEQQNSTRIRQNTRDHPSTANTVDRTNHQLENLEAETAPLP

Sample 1
Compound: Cn1cncc1[C@@](O)(COc1ccc(C#N)cc1-c1ccc(OC(F)(F)F)cc1)c1ccc(C#N)cc1
Method: competition with immobilised ligand
Concentration: 1 µM
target	assay	remaining binding [%]
Mitogen-activated protein kinase 6 (MAPK6, Homo sapiens, UniProt Q16659)	cell-free assay	93
Cyclin-dependent kinase 4 (CDK4, Homo sapiens, UniProt P11802)	cell-free assay	100
Transient receptor potential cation channel subfamily M member 6 (TRPM6, Homo sapiens, UniProt Q9BX84)	cell-free assay	100
Receptor-type tyrosine-protein kinase FLT3 (FLT3, Homo sapiens, UniProt P36888, R834Q)	cell-free assay	100
Tyrosine-protein kinase Tec (TEC, Homo sapiens, UniProt P42680)	binding	100
Rhodopsin kinase GRK1 (GRK1, Homo sapiens, UniProt Q15835)	cell-free assay	100
Inhibitor of nuclear factor kappa-B kinase subunit beta (IKBKB, Homo sapiens, UniProt O14920)	cell-free assay	100
Rho-associated protein kinase 1 (ROCK1, Homo sapiens, UniProt Q13464)	cell-free assay	100
Serine/threonine-protein kinase PAK 2 (PAK2, Homo sapiens, UniProt Q13177)	cell-free assay	96
RAC-alpha serine/threonine-protein kinase (AKT1, Homo sapiens, UniProt P31749)	cell-free assay	100

Sample 2
Compound: CCn1cnc2c(Nc3cccc(Cl)c3)nc(N[C@H]3CCCC[C@H]3N)nc21
Effect on: enzyme activity
Mode: inhibitor
Concentration: 0.5 µM
Reference: control
target	remaining activity [%]
Serine/threonine-protein kinase N1 (PKN1, Homo sapiens, UniProt Q16512)	69.9
Serine/threonine-protein kinase MRCK alpha (CDC42BPA, Homo sapiens, UniProt Q5VT25)	93.4
MAP/microtubule affinity-regulating kinase 3 (MARK3, Homo sapiens, UniProt P27448)	98.7
Serine/threonine-protein kinase 25 (STK25, Homo sapiens, UniProt O00506)	101
Tyrosine-protein kinase Fyn (FYN, Homo sapiens, UniProt P06241)	48.6
Serine/threonine-protein kinase NLK (NLK, Homo sapiens, UniProt Q9UBE8)	90.8
cAMP-dependent protein kinase catalytic subunit PRKX (PRKX, Homo sapiens, UniProt P51817)	102
Insulin receptor (INSR, Homo sapiens, UniProt P06213)	91.3
Cyclin-dependent kinase 3, with cyclin E (CDK3, Homo sapiens, UniProt Q00526)	49.7
Vascular endothelial growth factor receptor 3 (FLT4, Homo sapiens, UniProt P35916)	105

Sample 3
Structure (SMILES): CNC(=O)c1ccc(-c2cnn3ccc(C(=O)N(C)c4ccc(Cl)c(C(=O)OC)c4)cc23)cc1
target	assay	conditions	IC50 [µM]
Protein kinase C theta type (PRKCQ, Homo sapiens, UniProt Q04759)	enzyme activity, inhibitor		> 30
MAP kinase-activated protein kinase 5 (MAPKAPK5, Homo sapiens, UniProt Q8IW41)	enzyme activity, inhibitor		> 30
Fibroblast growth factor receptor 4 (FGFR4, Homo sapiens, UniProt P22455)	enzyme activity, inhibitor		> 30
Tyrosine-protein kinase ZAP-70 (ZAP70, Homo sapiens, UniProt P43403)	enzyme activity, inhibitor		> 30
Mu-type opioid receptor (OPRM1, Homo sapiens, UniProt P35372)	cell-free assay		> 30
Tyrosine-protein kinase SYK (SYK, Homo sapiens, UniProt P43405)	enzyme activity, inhibitor		> 30
Protein kinase C alpha type (PRKCA, Homo sapiens, UniProt P17252)	enzyme activity, inhibitor		> 30
Estrogen receptor (ESR1, Homo sapiens, UniProt P03372)	cell-free assay		> 30
eIF-2-alpha kinase GCN2 (EIF2AK4, Homo sapiens, UniProt Q9P2K8)	enzyme activity, inhibitor		> 30
Progesterone receptor (PGR, Homo sapiens, UniProt P06401)	cell-free assay		> 30
5'-AMP-activated protein kinase catalytic subunit alpha-2 (PRKAA2, Homo sapiens, UniProt P54646)	enzyme activity, inhibitor		> 30
Phosphatidylinositol 4-kinase (Cryptosporidium parvum, UniProt Q5CVD3)	enzyme activity, inhibitor, ADP-Glo	wild type	0.00392
Rho-associated protein kinase 2 (ROCK2, Homo sapiens, UniProt O75116)	enzyme activity, inhibitor		> 30
Serine/threonine-protein kinase pim-1 (PIM1, Homo sapiens, UniProt P11309)	enzyme activity, inhibitor		3.72
cAMP-dependent protein kinase catalytic subunit alpha (PRKACA, Homo sapiens, UniProt P17612)	enzyme activity, inhibitor		> 30
5-hydroxytryptamine receptor 1A (HTR1A, Homo sapiens, UniProt P08908)	cell-free assay		> 30
human phosphodiesterase 3	enzyme activity		> 30
3-phosphoinositide-dependent protein kinase 1 (PDPK1, Homo sapiens, UniProt O15530)	enzyme activity, inhibitor		> 30

Sample 4
Target: CRBN/Zinc finger protein Helios (Homo sapiens, UniProt Q96SW2+Q9UKS7)
Chain of UniProt Q9UKS7 (whole entry, looked up): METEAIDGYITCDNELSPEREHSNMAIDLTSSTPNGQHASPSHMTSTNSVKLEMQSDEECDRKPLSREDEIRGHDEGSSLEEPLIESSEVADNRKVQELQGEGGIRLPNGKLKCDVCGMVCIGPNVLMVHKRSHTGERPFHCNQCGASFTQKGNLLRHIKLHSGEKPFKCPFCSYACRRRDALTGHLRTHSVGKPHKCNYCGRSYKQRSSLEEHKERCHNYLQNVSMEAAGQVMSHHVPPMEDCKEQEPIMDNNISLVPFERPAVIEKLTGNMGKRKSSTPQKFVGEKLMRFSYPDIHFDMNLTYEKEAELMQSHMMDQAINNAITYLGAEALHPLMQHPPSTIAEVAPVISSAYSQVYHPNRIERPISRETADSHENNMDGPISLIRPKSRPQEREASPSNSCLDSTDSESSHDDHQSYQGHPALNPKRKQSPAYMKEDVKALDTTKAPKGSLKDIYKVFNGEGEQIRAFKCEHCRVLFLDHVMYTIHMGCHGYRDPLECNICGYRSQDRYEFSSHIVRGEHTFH
Chain of UniProt Q96SW2 (whole entry, looked up): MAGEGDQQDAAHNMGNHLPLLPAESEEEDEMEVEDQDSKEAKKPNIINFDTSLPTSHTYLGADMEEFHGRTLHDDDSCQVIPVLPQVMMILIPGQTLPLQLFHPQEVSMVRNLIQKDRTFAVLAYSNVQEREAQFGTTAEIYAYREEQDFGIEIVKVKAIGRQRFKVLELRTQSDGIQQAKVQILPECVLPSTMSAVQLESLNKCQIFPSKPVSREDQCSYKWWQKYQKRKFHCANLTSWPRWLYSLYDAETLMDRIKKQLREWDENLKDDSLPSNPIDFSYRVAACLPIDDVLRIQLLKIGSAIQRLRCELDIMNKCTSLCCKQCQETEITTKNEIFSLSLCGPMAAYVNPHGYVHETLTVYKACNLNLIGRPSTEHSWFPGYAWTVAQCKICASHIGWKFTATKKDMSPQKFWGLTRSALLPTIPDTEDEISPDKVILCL
Mode: degrader
Method: HiBiT
Cell line: HEK293
Concentration: 1.524 nM
SMILES	protein remaining
O=C1CCC(N2Cc3c(ccc4c3OCC43CCN(Cc4ccccn4)CC3)C2=O)C(=O)N1 (centres unmarked)	93%
O=C1CCC(N2Cc3c(ccc4c3OCC43CCN(Cc4ccccc4)C3)C2=O)C(=O)N1 (centres unmarked)	91.6%
O=C1CCC(N2Cc3c(ccc4c3OCC43CCCN(Cc4ccccc4)CC3)C2=O)C(=O)N1 (centres unmarked)	94.8%
O=C1CCC(N2Cc3c(ccc4c3OCC43CCN(CC4CCCCC4)CC3)C2=O)C(=O)N1 (centres unmarked)	96.4%
O=C1CCC(N2Cc3c(ccc4c3OCC43CCN(Cc4ccccc4)CC3(F)F)C2=O)C(=O)N1 (centres unmarked)	94.3%
O=C1CCC(N2Cc3c(ccc4c3OCC43CCN(Cc4ccsc4)CC3)C2=O)C(=O)N1 (centres unmarked)	82.1%

Excerpt of the above (sample 4):
SMILES	protein remaining
O=C1CCC(N2Cc3c(ccc4c3OCC43CCN(Cc4ccccn4)CC3)C2=O)C(=O)N1 (centres unmarked)	93%
O=C1CCC(N2Cc3c(ccc4c3OCC43CCN(Cc4ccccc4)C3)C2=O)C(=O)N1 (centres unmarked)	91.6%
O=C1CCC(N2Cc3c(ccc4c3OCC43CCCN(Cc4ccccc4)CC3)C2=O)C(=O)N1 (centres unmarked)	94.8%
O=C1CCC(N2Cc3c(ccc4c3OCC43CCN(CC4CCCCC4)CC3)C2=O)C(=O)N1 (centres unmarked)	96.4%
O=C1CCC(N2Cc3c(ccc4c3OCC43CCN(Cc4ccccc4)CC3(F)F)C2=O)C(=O)N1 (centres unmarked)	94.3%
O=C1CCC(N2Cc3c(ccc4c3OCC43CCN(Cc4ccsc4)CC3)C2=O)C(=O)N1 (centres unmarked)	82.1%
